Measured values pooled from the literature.
Each line is one published result; not all experiments were run side by side. Several values in a cell are separate wells, animals, samples, runs or records. Numbers after ± are the reported error.

Cc1[nH][n+]([Pd-2]([Cl])([Cl])[n+]2[nH]c(C)c(CSC3CCCCC3)c2C)c(C)c1CSC1CCCCC1 — selectivity index (U-937; cytotoxicity; reference: IC50 HEK293 over IC50 U-937): 1.2
O=C(Nc1nnc2c1c(-c1ccc(Cl)cc1)nc1sc(=Cc3ccco3)c(=O)n12)c1ccccc1 (mixture of isomers) — cell growth (NCI-H322M; SRB; 10 µM, NCI60 single-dose screen; reference: untreated): 40%
CC(=O)OC[C@H]1O[C@@H](n2cc(CSc3nc4ccccc4n3Cc3cn([C@@H]4O[C@H](COC(C)=O)[C@@H](OC(C)=O)C(OC(C)=O)[C@H]4OC(C)=O)nn3)nn2)[C@H](OC(C)=O)C(OC(C)=O)[C@@H]1OC(C)=O (stereo in doubt) — cytotoxicity (Caco-2; MTT; 3.91 ppm): 52.4%
O=C(N/N=C/c1cc[n+](Cc2ccccc2)c2ccccc12)c1ccc2ccc3ccc(C(=O)N/N=C/c4cc[n+](Cc5ccccc5)c5ccccc45)nc3c2n1 — ΔTm (hp2 hairpin duplex DNA; FRET melting; 1 µM, added: ds26 10 µM): 0.8 ± 0.2 °C
CCN(CC)CC(=O)Nc1cccc(-n2cc(-c3ccc4ccc(-c5cn(-c6cccc(NC(=O)CN(CC)CC)c6)nn5)cc4c3)nn2)c1 — fold regulation (RCC4; PCR angiogenesis array, item: EFNB2; 5 x IC50, 2 h, normoxia; reference: untreated): -1.08
CSC(=S)N/N=C(\C)c1ccc(Nc2nnc(-c3ccc(Cl)cc3)c3ccccc23)cc1 — cell death (MCF7; cell growth or viability, MTT; 10 µM): 92.8%
CC(C)(C)c1cc(-c2ccc3cc4ccccc4nc3n2)nc(-c2ccc3cc4ccccc4nc3n2)c1.Cc1ccncc1.[Cl-].[Cl-].[Ru+2].c1ccc2cc3nc4c5cccnc5c5ncccc5c4nc3cc2c1 — EC50 (A-375; photocytotoxicity, resazurin; visible light 400-700 nm, 20 mW, 100 J/cm2): 6.53 µM
CC(C)c1ccc(N(C)c2ccc3c(c2)OCC[C@H]3CNc2cnccc2C(=O)O)cc1 — IC50 (HCC1428; cell viability, CellTiter-Glo; 7 days): ≥ 10 µM
CN(C)c1ccc(-n2cc(COC(=O)[C@@]3(C)C=C(C(=O)OC(C)(C)C)C(=O)CC3)nn2)cc1 — luminescence (AP-1 reporter HEK293; AP-1 reporter gene, luciferase reporter; 10 µM, 6 h, added: PMA 6 ng/mL; higher = more transcription): 1460 a.u.
C=CC(=O)N1[C@H](c2ccc3c(c2)OCO3)c2[nH]c3ccccc3c2C[C@@H]1C(=O)NC — neuron degeneration (rat DRG neurons; 10 µM, 48 h, added: vincristine 40 nM): 11.9% and 11%
CC(C)(C)c1cc(-c2ccc3cccnc3n2)nc(-c2ccc3cccnc3n2)c1.[Cl-].[Cl-].[Ru+2].c1ccc2cc3nc4c5cccnc5c5ncccc5c4nc3cc2c1 — phototoxicity index (A-375; resazurin; added: light 633 nm, 100 J/cm2; reference: dark EC50 over light EC50): 3
Cc1cc(C)nc(SCC(=O)Nc2ncc(Cc3cccc(OCc4cn(Cc5ccc(C#N)cc5)nn4)c3)s2)n1 — inhibition (PC-3M-luc; colony formation, colony forming; 10 µM): 30.4 ± 13.2%
[Cl-].[Cl-].[Ru+2].c1ccc(-c2ccccn2)nc1.c1ccc(-c2ccccn2)nc1.c1ccc2cc3nc4c5cccnc5c5ncccc5c4nc3cc2c1 — phototherapeutic index (SK-MEL-28; cell viability, resazurin; dark, 1% O2 hypoxia; reference: dark EC50 over green EC50): 1
O=C(N/N=C/c1cc[n+](Cc2ccccc2)c2ccccc12)c1cccc(C(=O)N/N=C/c2cc[n+](Cc3ccccc3)c3ccccc23)n1 — ΔTm (hp2 hairpin duplex DNA; FRET melting; 1 µM, added: ds26 10 µM): 0.9 ± 0.2 °C
O=C1CC[C@H](N2Cc3cc(-c4ccn5ncc(Cl)c5n4)ccc3C2=O)C(=O)N1 — log2 fold change (MOLM-13; mRNA level, RNA-seq, item: SLC7A5; 200 nM, 24 h; reference: DMSO): -3.23
COc1ccccc1C(=O)NCC(=O)Nc1ccc2[nH]nc(/C=C/c3ccccn3)c2c1 — GI50 (Ba/F3 TEL-VEGFR1; cell growth, CCK-8): 2 µM
CCOc1cncc(-c2ccc(NC(=O)C3(c4ccnc(NS(=O)(=O)C5CC5)n4)CCOCC3)nc2)n1 — IC50 (UOC-M1; cell proliferation, CellTiter-Glo; 72 h, myeloid haematological cancer): 0.066 µM
CNS(=O)(=O)Nc1nccc(Cc2c(C)c3ccc(Oc4ncccc4F)cc3oc2=O)c1F — IC50 (COLO 205; cell viability; 7 days): 0.0108 µM
Cc1ccncc1.[Cl-].[Cl-].[Ru+2].c1cc(-c2ccc3cccnc3n2)nc(-c2ccc3cccnc3n2)c1.c1ccc2cc3nc4c5cccnc5c5ncccc5c4nc3cc2c1 — EC50 (A-375; photocytotoxicity, resazurin; visible light 400-700 nm, 20 mW, 100 J/cm2): 1.04 µM
CO[C@@H]1[C@@H](OC(N)=O)[C@@H](O)[C@H](Oc2ccc3c(O)c(NC(=O)c4ccc(O)c(CC=C(C)C)c4)c(=O)oc3c2C)OC1(C)C — colony count (DLD-1 parental; 100 µM, replicate 2): 51
Cc1ncsc1-c1ccc(C(C)NC(=O)C2CC(O)CN2C(=O)C(NC(=O)CCCCCCCCCCN2CCCC(Nc3ncc(Cl)c(Nc4ccccc4S(=O)(=O)C(C)C)n3)C2)C(C)(C)C)cc1 (centres unmarked) — log2 fold change (22Rv1; RNA-seq, item: TMEM140 mRNA; concentration not given; reference: DMSO): -1.55
CCN(C(=O)c1cc(F)ccc1Oc1nncnc1N1CCC2(C1)CN([C@H](CCCN(C)CCOC)C(C)C)C2)C(C)C — GI50 (A-375; cell growth or viability; 7 days): > 10 µM
CCn1nc(Cl)c2c1-c1cnc(N)c(c1)O[C@H](C)c1cc(F)ccc1-c1nn(C)cc1C2 — Emax (Ba/F3 EML4-ALK v3, no mutation; cell viability): 99.7%
C=CC(=O)N1CCCC(n2c(=O)c3ncccc3n(Cc3ccc(Oc4ccccc4)cc3)c2=O)C1 (centres unmarked) — log2 fold change (Rec1; item: EMB; concentration not given; reference: untreated): -0.24
COC(=O)c1cc(NC2=NC(=O)C(=Cc3ccc(N(C)C)cc3)S2)ccc1OC(C)=O — metabolite level (MCF7; GC-MS, item: Citric acid; 1 µM; reference: DMSO): -0.21 fold change
CCCCCCCCCCCC(=O)N[C@H](CO)C[C@@H](O)c1ccccc1 — ceramide level (HeLa; CERT activity, HPLC-MS/MS lipidomics, item: ceramide 16; 1 µM, 24 h, not cell-number normalised): 20200 pmol/sample and 23100 pmol/sample and 22000 pmol/sample
Cc1cc(Cl)cc(-c2ccnc3cc(CN4C(=O)C5C(C4=O)C5(C)C)sc23)c1C[C@@H]1CNCCO1 (some centres unmarked) — cells in S phase (CHP-212 resistant; PI staining flow cytometry; 1 µM, 24 h): 10.1% and 13% and 9.84%
CN1CCCNC(=O)c2cccc(c2)C(=O)NCCCN(C)CCCNc2cccc3c2C(=O)c2cccc(c2C3=O)NCCC1 — log2 fold change (SAS; RNA-Seq, item: SRSF6 mRNA; 1 µM, 6 h; reference: untreated cells): 0.535
CCCNC(=O)[C@H]1O[C@@H]1C(=O)N[C@H](C(=O)N1CCC[C@H]1C(=O)OCC1=C2C(C)=CC(C)=[N+]2[B-](C)(C)n2c(C)cc(C)c21)[C@@H](C)CC — EC50 (MCF-10A; cell viability, MTT; 72 h, dark): 27 ± 11.5 µM
COc1cccc(OC)c1-c1cc(C(=O)NC2(C(=O)O)C3CC4CC(C3)CC2C4)nn1-c1ccc(C(=O)N(C)CCOCCN(C)C(=O)[C@H](CCCCNC(=O)[C@H](CC(C)C)NC(=O)C2OC2C(=O)O)NC(=O)CN2CCN(CC(=O)[O-])CCN(CC(=O)[O-])CCN(CC(=O)[O-])CC2)cc1C(C)C.[177Lu+3] (mixture of isomers) — internalized fraction (HT-29; 240 min, 4 h; reference: added activity): 3.74 ± 0.43%
COc1ccccc1-c1ccncc1C(=O)Nc1nnc(OCc2ccc(Cl)cc2)s1 — γH2AX foci-positive nuclei (DLD-1 BRCA2 wild-type; immunofluorescence; 5 µM, 96 h): 22.8%
Cn1ncc2cc(-c3cncc(Cl)c3N3CCC4(CCNC4=O)CC3)ccc21 — fold change in expression (LS174T; microarray, item: IL17C; concentration not given, 24 h, gene set IL-17C; reference: untreated cells): -3.29

Some of these lines once more:
O=C(N/N=C/c1cc[n+](Cc2ccccc2)c2ccccc12)c1cccc(C(=O)N/N=C/c2cc[n+](Cc3ccccc3)c3ccccc23)n1 — ΔTm (hp2 hairpin duplex DNA; FRET melting; 1 µM, added: ds26 10 µM): 0.9 ± 0.2 °C
COc1ccccc1-c1ccncc1C(=O)Nc1nnc(OCc2ccc(Cl)cc2)s1 — γH2AX foci-positive nuclei (DLD-1 BRCA2 wild-type; immunofluorescence; 5 µM, 96 h): 22.8%
Cn1ncc2cc(-c3cncc(Cl)c3N3CCC4(CCNC4=O)CC3)ccc21 — fold change in expression (LS174T; microarray, item: IL17C; concentration not given, 24 h, gene set IL-17C; reference: untreated cells): -3.29
